Experimental data gathered from unrelated publications.
Every numbered part comes from another study and shows a few of its results, in no order.

Study 1
Target: Interferon regulatory factor 3, full length, phosphomimetic (IRF3, Homo sapiens, UniProt Q14653, residues 1-427, S386D/S396D/S398D/S402D/T404D/S405D)
Method: protein-binding microarray
Molecule type: double-stranded DNA, one strand shown
Medium: in vitro
Tested at: 2540 nM top
Notes: 60-bp whole probe
Together with: salmon DNA 0.4 mg/ml
Reference: random background probes
Direction: higher = stronger binding
Constant ends, left off below: GCCTAGCAC … GTCTTGATTCGCTTGACGCTGCTG
Construct (chain): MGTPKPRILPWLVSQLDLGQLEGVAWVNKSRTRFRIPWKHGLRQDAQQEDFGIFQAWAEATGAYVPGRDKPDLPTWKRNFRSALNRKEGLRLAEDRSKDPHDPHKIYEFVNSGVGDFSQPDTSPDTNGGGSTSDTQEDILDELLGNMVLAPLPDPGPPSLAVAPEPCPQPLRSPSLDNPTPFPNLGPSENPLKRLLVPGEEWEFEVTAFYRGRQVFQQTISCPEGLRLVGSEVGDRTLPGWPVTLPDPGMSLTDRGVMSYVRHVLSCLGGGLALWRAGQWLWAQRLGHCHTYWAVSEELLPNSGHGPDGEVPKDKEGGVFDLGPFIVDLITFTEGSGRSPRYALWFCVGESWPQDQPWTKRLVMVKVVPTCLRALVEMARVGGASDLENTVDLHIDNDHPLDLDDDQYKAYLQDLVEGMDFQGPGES
Oligonucleotide	fitted relative affinity [z-score]
TTAGGTATCGATCTCGGTTAGTGCTAG	3.14
TTTAGCAGACTGAGAGGAACGTGCTAG	-0.437
GATGGTATCGGTCTCGGGACGTGCTAG	4.57
GACGGTTTCGGTTTCGGGAGGTGCTAG	10.7
CTAATTTTTACTTTCTGAATGTGCTAG	3.39
TTATGTATCCTTCTCCTTTAGTGCTAG	7.38
GACGATATCAGAATCGAGACGTGCTAG	1.3
TTAGATTTCAGCCTCGATTAGTGCTAG	0.13
GACGGTTTAGGTTCCGGGACGTGCTAG	1.56
CAACATCTGCAAGATCCACAAGTGCTA	0.093
CCCAATAATCTTTTCACTTTGTGCTAG	1.2
TTATGTTTCGACTTTCGGTTAGTGCTA	3.3
TCATGTTTGATAATTTTACTGTGCTAG	-0.0185
TTAGATTTCGGGCTTCGATTAGTGCTA	0.798
GACGGTATCTGTATCGGGACGTGCTAG	2.61
TCATCATTTTTTTTCATACTGTGCTAG	0.794
TTAGGTCTCGGTACCGGTTAGTGCTAG	0.723
TAAGGTATCCTACTGCTTTAGTGCTAG	2.25
TCAGATATAAATGTAACACTGTGCTAG	0.255
GACAGTTTCGGTCTCGGGACGTGCTAG	8.93
TTCGGTATCGGGTTTCGGTTAGTGCTA	4.26
GTCGGTTCCCTTTTCCTGACGTGCTAG	7.43
CCCTTTCTCAACCTCCAGAGGTGCTAG	4.87
TTAGGTATACTACTGCTTTAGTGCTAG	-0.0981
TCATATTTTAATCACATACTGTGCTAG	0.864

Study 2
Target: RNA binding protein fox-1 homolog 2, RRM domain, GST-SBP tag (RBFOX2, Homo sapiens, UniProt O43251-10, residues 100-194)
Method: RNA Bind-n-Seq
Molecule type: RNA
Medium: in vitro
Tested at: 365 nM
Notes: natural RNA segment, single round, ends assumed
Reference: no-protein control
Direction: higher = stronger binding
Constant ends, left off below: GGGAGUUCUACAGUCCGACGAUC … UGGAAUUCUCGGGUGCCAA
Target sequence (chain): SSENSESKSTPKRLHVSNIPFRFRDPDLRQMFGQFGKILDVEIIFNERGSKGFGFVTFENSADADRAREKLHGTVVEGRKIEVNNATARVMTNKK
Oligonucleotide	RBNS enrichment (R)
AGUUCUGUUCAGCCAUCAGAAGAGAGACAAGGAAUUAAAAAUUUCUUUUUAAUCCUGUUACCAAAUAGCCAUUUGUCUCUUCUCUUUACUUUUAGAAUAUCAACUUUUUU	0.43
AAGUAAAGUAUGCUGGGCUGGUGGUGGUCAGCCUUCCCCUUGCCAAGAAGAGAGCAAUUGAAUCCUGUCCCCAGCUCCCUCCAGCCUGAAGAGUGACCAGUGCUGGCCCG	1.35
UCUGCACGACUGAAGGGCCAGGCGUAAAGAUGACUGACAGAAGUGUAGACUAGAGGAGAGGCUAGAGAGCAUGUGCUGCGGGGCCUAAUUAUAGGUCCUCACUCUUGACA	1.97
GCCUGAAUGUGAAACAUUCCUCCUUUUUUCUUCCAUAAAUAAUUUGUUUGCUUCCCAAAGAUGUAUGUUUUGGAAAAAAAUUGCCUGUAGUCUGGUUGUGAAGAACACUG	3.85
GUAGGCUGCAGUAGGUGUCCUACCUCGAGGCCCUCAGAUGGAGGUAACACAUUAGGAUUGUGGGACACAAGAUCCUCUCUGAACCUCCUGGUUAAGGAACGUUCCUGCAA	0.409
AUAUGCAGUGUUAGCCGAAUUAGAUUUACAAGACAAUCUAAGCUUUCCGGAUAAUUUUAUAUAUCAAACAUACAGGAUGGAUACAUAGUUGGCAACAGUCUACCUUAUUU	0.39
ACCACCACCUACAAAUGAGGGGACUCAUCUAGAAGACCUCUAAGGUCCCCUUUUGGCUCUGAGGGGUCUCUAAUAAUCCCCACUUGGAAUUCAGCACCGCAAGGAAAUUA	0.378
GAGAAGAGAGAUGGCCUGAGCAGGAACGGAGCUCUCCUCAGUUGGAAGCAAUGUGGGGCGCUGCGAGCCCCUCCCAGUCCUCUAGAGACUGUCUCCUUUCUGCCUCUGGU	0.49
CAGCCAGCACAGGAUUUGUCCUCAUUCCGUGGGUGAUGGAUGAAUCUAUUGGAGUCCUGAAUAAAUGCUGCUCUUUGGCUUCCAAAACCCUGCUCUCUCUGGCCUUGGGU	0.299
AGGGCCAGCGUCACCAGACCAGCUGCGGGACAAACCACUCAGACUGCUUGUAGGACAAAUACUUCUGACAUUUUCGUUUAAGCAAAUACAGGUGCAUUUAAAACACGACU	0.561
GUGAUAAUGGUUGGAAGGAUGUGGGAUUAUGAAACUGCUUUUGUUUUGUUGGGUUUUUUUUUUUUUGUUUUGUUUUGUUUUUAGAAAACUUGUGAAUGAAAAUGAACCCA	0.541
CCCCUCCACAGUCACUAGAGGGCUCUCUAAUGCUUUCUAAAGGAGCCACCACCUGCUCCGUGGCCACUCCUGUCACCCUGUCUAAUUGCACCAUUCAAGAAGAGCACAGG	0.792

Study 3
Target: Histone acetyltransferase KAT6A, both winged helices, GST fusion (KAT6A, Homo sapiens, UniProt Q92794, residues 1-181)
Method: protein binding microarray
Molecule type: double-stranded DNA, one strand shown
Medium: in vitro
Tested at: not given
Notes: 8-mer, flanks averaged, mean of 2 arrays, mostly near background
Reference: not given
Direction: higher = stronger binding
Target sequence (chain): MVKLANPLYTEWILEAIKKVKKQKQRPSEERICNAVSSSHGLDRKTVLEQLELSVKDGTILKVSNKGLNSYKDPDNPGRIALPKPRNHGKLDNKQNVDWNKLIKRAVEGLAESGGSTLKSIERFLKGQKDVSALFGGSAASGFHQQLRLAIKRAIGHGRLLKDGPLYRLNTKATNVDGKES
Oligonucleotide	E-score
GGAACGCA	0.162
CCAAGTTC	-0.0921
AGTCAGTG	-0.204
GCCTTGCC	0.00196
AGACGGCG	0.211
GTCCGGCA	0.167
ATCTCACA	-0.033
TAATCGCA	0.0914
CGAATGAG	0.141
CCCGGGTC	0.281
CACCGAGG	0.0137
AGAGACAA	-0.182
ACTGAATG	0.0422
CATTTCCG	0.173
AGACTATG	-0.0957
CAGAATCC	-0.0871
CTGGAAGA	-0.0871
TAGCCAAA	-0.0838
CAAGACTA	-0.00875
CTTGCAAC	-0.109
ATTTTGCC	0.00717
ATCCGCAT	0.182
ATCGTTCC	0.00181
ATAACGAA	-0.0428
CGGCATAA	0.278

Study 4
Target: Ras GTPase-activating protein-binding protein 1, C-terminal RGG region (G3BP1, Homo sapiens, UniProt Q13283)
UniProt Q13283, sequence (whole entry, looked up): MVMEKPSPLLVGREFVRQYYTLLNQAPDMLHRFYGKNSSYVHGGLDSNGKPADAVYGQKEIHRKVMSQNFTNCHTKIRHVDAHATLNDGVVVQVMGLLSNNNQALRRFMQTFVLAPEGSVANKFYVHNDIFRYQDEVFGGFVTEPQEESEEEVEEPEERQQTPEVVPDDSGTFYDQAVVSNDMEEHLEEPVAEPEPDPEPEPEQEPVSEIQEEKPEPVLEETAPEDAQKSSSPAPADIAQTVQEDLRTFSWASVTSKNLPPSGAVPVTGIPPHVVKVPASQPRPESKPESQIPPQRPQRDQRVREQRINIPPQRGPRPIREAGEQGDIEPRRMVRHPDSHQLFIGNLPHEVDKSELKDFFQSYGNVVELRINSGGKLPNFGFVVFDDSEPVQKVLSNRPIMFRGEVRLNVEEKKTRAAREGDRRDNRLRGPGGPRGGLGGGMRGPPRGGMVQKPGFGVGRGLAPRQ
Method: RNA Bind-n-Seq
Molecule type: RNA
Medium: in vitro
Tested at: 1 µM
Notes: whole 134-nt RNA, ends assumed
Together with: 150 mM KCl
Reference: input library
Direction: higher = stronger binding
Constant ends, left off below: GGGAGUUCUACAGUCCGACGAUC … UGGAAUUCUCGGGUGUCAAGG
Oligonucleotide	log2 enrichment
GUCCUGUGCUACACAUCGUAUGUACCGAAUCAAACCCCCCCAAAUUUUUAAACCCAAAAAAGUAUUAUGUUACGCCGUUCGGAUCUGCAC	-0.524
UCAAGUCCUGUGCUACACAUCGUAUGUACCGAAUCGGAAAGGUUUUUGGUUUGGAAAGUAUUAUGUUACGCCGUUCGGAUCUGCACUUCC	-1.47
AGUCCUGUGCUACACAUCGUAUGUACCGAAUCGGGGAAAAAAAGGGGAGGGGAGGGGAAAGUAUUAUGUUACGCCGUUCGGAUCUGCACU	2.18
UGGCCCUGGUGGCAUGCGGGGAGGAAGAGGUGGCCUCAUGGAUCGUGGUGGUCCCGGUGGUAUGUUCAGAGGUGGCCGUGGUGGAGACAG	1.82
UUGUGGCUGAGAGACAGUUUGCAAAGGAACAACAUACAGAUGGGACACUAAAGGAAGUUGGAGAAGAUUAUCAAAUCGCAAUCCCAGAUU	-0.289
AGUCCUGUGCUACACAUCGUAUGUACCGAAUCAAACCCAAAUUUAAACCCCCCCAAAAAAGUAUUAUGUUACGCCGUUCGGAUCUGCACU	-0.932
CAAGUCCUGUGCUACACAUCGUAUGUACCGAAUCGGUUUUGGUUUUGGGGUUUUGGAAAGUAUUAUGUUACGCCGUUCGGAUCUGCACUU	-1.85
CAAGUCCUGUGCUACACAUCGUAUGUACCGAAUCGGAGGAAAAAAAGGUUUUUGGAAAGUAUUAUGUUACGCCGUUCGGAUCUGCACUUC	-1.87
UAACUUUAGAGGAGGAUCUCAUGGAUAUGGCAGUGGACGUGGAUUUGGGGAUGGCUAUAAUGGGUAUGGAGGAGGACCUGGAGGUGGCAA	-1.15
UCAAGUCCUGUGCUACACAUCGUAUGUACCGAAUCGGAAAGGAAAGGGAAAGGGGAAAGUAUUAUGUUACGCCGUUCGGAUCUGCACUUC	-1.48
UGGGAGGUGGAUUUUGUUUAUUUUUUUAGCUCAUUUCCAGGGGUGGGAAUUUUUUUUUAAUAUGUGUCAUGAAAAAAGUUGUUUUUGAAA	2.54
GUCCUGUGCUACACAUCGUAUGUACCGAAUCGGGGUUUUGGGGUUUUGGGGUUUUGGGAAAGUAUUAUGUUACGCCGUUCGGAUCUGCAC	0.524
UGGCCCUGGUGGCAUGCGGGGAGGAAGAGGUGGCCUCACGGAUCGUGGUGGUCCCGGUGGAAUGUUCAGAGGUGGCCGUGGUGGAGACAG	2.15
GUCCUGUGCUACACAUCGUAUGUACCGAAUCGGGGAAAAAGGGGAGGGGUUUUUGGGGAAAGUAUUAUGUUACGCCGUUCGGAUCUGCAC	1.56

A few entries again (study 3):
Oligonucleotide	E-score
ATTTTGCC	0.00717
AGTCAGTG	-0.204
ATCCGCAT	0.182
GGAACGCA	0.162
TAGCCAAA	-0.0838
CGGCATAA	0.278
GCCTTGCC	0.00196
CTTGCAAC	-0.109
CTGGAAGA	-0.0871
